Published values from different studies.
Parts stem from different laboratories: compare values within a part only.

Block 1
Target: Replicase polyprotein 1ab, main protease (rep, Severe acute respiratory syndrome coronavirus 2, UniProt P0DTD1)
Read-out: enzyme activity
Action: inhibitor
Notes: no DTT
Endpoint: IC50
Structure (SMILES) = Oc1cccc(-c2c3nc(c(-c4cccc(O)c4)c4ccc([nH]4)c(-c4cccc(O)c4)c4nc(c(-c5cccc(O)c5)c5ccc2[nH]5)CC4)C=C3)c1; value = 6.6 µM
Structure (SMILES) = COc1ccnc(C[S+]([O-])c2nc3ccc(OC(F)F)cc3[nH]2)c1OC (stereo not shown); value = > 20 µM
Structure (SMILES) = CC(C)N(CCC(=O)c1ccc2ccccc2c1)Cc1ccccc1; value = 0.6 µM

Block 2
Target: Replicase polyprotein 1ab, polymerase (rep, Severe acute respiratory syndrome coronavirus 2, UniProt P0DTD1)
Read-out: enzyme activity
Action: inhibitor
Concentration: 20 µM
Endpoint: inhibition
SMILES = CCCCOc1ccc(C(=O)CCN2CCCCC2)cc1; value = -13.5%
SMILES = CS(=O)(=O)Oc1ccc2c(NC(N)=O)c(C(=O)c3ccc(Cl)cc3Cl)oc2c1; value = -7.17%
SMILES = C#C[C@]1(O)C=C[C@H]2[C@@H]3CCC4=CC(=O)CC[C@@H]4[C@H]3CC[C@@]21CC; value = -6.63%
SMILES = CN(Cc1cc(Br)cc(Br)c1N)C1CCCCC1; value = -2.77%
SMILES = O=S1(=O)CCN(CN2CCS(=O)(=O)NC2)CN1; value = 0.23%
SMILES = CN(C)CCCN1c2ccccc2Sc2ccccc21; value = 21.6%
SMILES = Cc1cccc(C)c1NC(=O)CN1CCN(CCCC(c2ccc(F)cc2)c2ccc(F)cc2)CC1; value = 2.29%
SMILES = CC(=O)OC/C=C(C)/C=C/C=C(C)/C=C/C1=C(C)CCCC1(C)C; value = 1.04%
SMILES = CN1C(=O)C[C@@H](C(=O)N[C@@H](Cc2c[nH]cn2)C(=O)N2CCC[C@H]2C(N)=O)NC1=O; value = -2.4%
SMILES = CCN(CC)CCOC(=O)C(c1ccccc1)C1CCCCC1 (stereo not shown); value = -0.05%
SMILES = CNCCc1cnc[nH]1; value = 0.26%
SMILES = O=C(N[C@H]1CCN(C(=O)c2cc(C(F)(F)F)cc(C(F)(F)F)c2)[C@H](Cc2ccc(Cl)cc2)C1)c1ccnc2ccccc12; value = 0.24%
SMILES = CC(C)N(CC[C@H](c1ccccc1)c1cc(CO)ccc1O)C(C)C; value = -3.11%
SMILES = O=C(O)CCCc1ccc(N(CCCl)CCCl)cc1; value = 5.41%
SMILES = O=C(O)CCCc1ccccc1; value = 3.87%
SMILES = N#C/C(=C\c1ccc(O)c(O)c1)C(N)=O; value = 1.84%
SMILES = CCc1ccc(C2=CC(C)(C)Sc3ccc(C#Cc4ccc(C(=O)O)cc4)cc32)cc1; value = 0.29%
SMILES = O=c1[nH]c(=O)n(C2CCCO2)cc1F (stereo not shown); value = -1.61%
SMILES = COc1ccccc1OC(=O)C(C)c1ccc(CC(C)C)cc1 (stereo not shown); value = 0.04%
SMILES = O=Nc1c(-c2c(O)[nH]c3cc(Br)ccc23)[nH]c2ccccc12; value = 13.2%
SMILES = Nc1ncnc2c1ncn2[C@@H]1O[C@H](COP(=O)(O)OP(=O)(O)OP(=O)(O)OP(=O)(O)OC[C@H]2O[C@@H](n3cnc4c(N)ncnc43)[C@H](O)[C@@H]2O)[C@@H](O)[C@H]1O; value = -8.03%
SMILES = C=C1C[C@]23C[C@@]1(O)CC[C@H]2[C@@]12C=C[C@H](O)[C@@](C)(C(=O)O1)[C@H]2[C@@H]3C(=O)O; value = -2.74%
SMILES = O=C(CCCl)NCCc1ccccc1; value = -2.02%
SMILES = OCCn1cc(-c2ccc3c(c2)CC/C3=N\O)c(-c2ccncc2)n1; value = -1.81%
SMILES = Cc1cc(C)c(Nc2ccnc(Nc3ccc(C#N)cc3)n2)c(C)c1; value = -6.92%

Block 3
Target: PABPC1L2, full length, GST fusion (mouse, UniProt A0ABA7IW68)
Method: RNAcompete
Molecule type: RNA
Matrix: in vitro
Concentration: 20 nM
Notes: 7-mer, probes averaged, single round
Baseline: mean of 7-mers
Reading: higher = stronger binding
Endpoint: 7-mer Z-score
Residues (chain): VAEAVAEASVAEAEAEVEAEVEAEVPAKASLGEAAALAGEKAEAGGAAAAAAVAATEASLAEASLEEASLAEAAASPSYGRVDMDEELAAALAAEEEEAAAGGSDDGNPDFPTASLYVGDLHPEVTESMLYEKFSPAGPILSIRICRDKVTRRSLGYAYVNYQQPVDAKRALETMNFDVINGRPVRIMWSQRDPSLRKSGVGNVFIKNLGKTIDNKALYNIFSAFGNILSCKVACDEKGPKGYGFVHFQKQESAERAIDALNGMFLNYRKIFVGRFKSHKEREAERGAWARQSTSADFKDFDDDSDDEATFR
Sequence = GCAACAU; value = 0.109
Sequence = ACAUACA; value = 0.195
Sequence = ACGAGUC; value = -0.295
Sequence = UACCUCU; value = -0.271
Sequence = AGGUUUA; value = -0.251
Sequence = GCUCUCG; value = -0.264
Sequence = UACCACU; value = -0.24
Sequence = UGUCCAU; value = -0.26

Block 4
Target: TAR DNA-binding protein 43, full length, His tag (TARDBP, Homo sapiens, UniProt Q13148, residues 1-414)
Method: RNA Bind-n-Seq
Molecule type: RNA
Matrix: in vitro
Concentration: 20 nM
Notes: 6-mer, flanks averaged, single round
Added: 150 mM LiCl
Baseline: input library
Reading: higher = stronger binding
Endpoint: 6-mer enrichment (R)
Sequence = UUAUAA; value = 1.1
Sequence = GUGUGC; value = 1.77
Sequence = UGUGGU; value = 1.66
Sequence = UGAUAG; value = 0.99
Sequence = UAACCU; value = 0.88
Sequence = UAGCAU; value = 0.882
Sequence = ACUAAU; value = 0.911
Sequence = UUACAG; value = 0.867

Block 5
Target: Fragile X messenger ribonucleoprotein 1, C-terminal low-complexity region (Fmr1, Mus musculus, UniProt P35922)
Method: RNA Bind-n-Seq
Molecule type: RNA
Matrix: in vitro
Concentration: 200 nM
Notes: whole 134-nt RNA, ends assumed
Added: 150 mM KCl
Baseline: input library
Reading: higher = stronger binding
Endpoint: log2 enrichment
Constant ends, left off below: GGGAGUUCUACAGUCCGACGAUC … UGGAAUUCUCGGGUGUCAAGG
Sequence = CCUGUGCUACACAUCGUAUGUACCGAAUCGGCCCCCCCGGGCCCCCCCGGCCCCCCCGGGAAAGUAUUAUGUUACGCCGUUCGGAUCUGC; value = 0.114
Sequence = AAGUCCUGUGCUACACAUCGUAUGUACCGAAUCGGGUUUUGGGUUUUGGGUUUUGGAAAGUAUUAUGUUACGCCGUUCGGAUCUGCACUU; value = -0.381
Sequence = CCUGUGCUACACAUCGUAUGUACCGAAUCGGGGUUUUUUGGGGUUUUUUGGGGUUUUUUGGAAAGUAUUAUGUUACGCCGUUCGGAUCUG; value = -0.354
Sequence = UGUUUAUCCAACAUAUGAUUUUGCCUGCCCCAUAGUUGACAGCAUCGAAGGUGUUACACAUGCCCUGAGAACAACAGAAUACCAUGACAG; value = 0.222
Sequence = AAGUCCUGUGCUACACAUCGUAUGUACCGAAUCGGGUUUUUUUGGGAAAGGGUGGGAAAGUAUUAUGUUACGCCGUUCGGAUCUGCACUU; value = 0.833
Sequence = UCAAGUCCUGUGCUACACAUCGUAUGUACCGAAUCGGGAGGGUUUGGGUUUGGGAAAGUAUUAUGUUACGCCGUUCGGAUCUGCACUUCC; value = 1.38
Sequence = GUCCUGUGCUACACAUCGUAUGUACCGAAUCAAACCCCCAAAUUUUUAAACCCCCAAAAAAGUAUUAUGUUACGCCGUUCGGAUCUGCAC; value = -0.244
Sequence = UCCUGUGCUACACAUCGUAUGUACCGAAUCGGGGUGGGGUUUUUGGGGAAAAAAAGGGGAAAGUAUUAUGUUACGCCGUUCGGAUCUGCA; value = 0.782

Block 6
Cell line: HEK-293T
Read-out: pseudovirus infection
Method: FDA-approved drug library screen
Organism: VSV pseudotyped with SARS-CoV-2 spike
Concentration: 10 µM
Time: 16 h
Baseline: vehicle-treated
Endpoint: GFP-positive cells
SMILES = CCN(Cc1ccncc1)C(=O)C(CO)c1ccccc1 (stereo not shown); value = 85.1%
SMILES = CCN(CCO)CCCC(C)Nc1ccnc2cc(Cl)ccc12 (stereo not shown); value = 37.3%
SMILES = NC(=O)N[C@@H](CCC(=O)O)C(=O)O; value = 82.2%

Excerpt of the above (block 4):
Sequence = ACUAAU; value = 0.911
Sequence = UUAUAA; value = 1.1
Sequence = UGUGGU; value = 1.66
Sequence = UAGCAU; value = 0.882
Sequence = UAACCU; value = 0.88
Sequence = GUGUGC; value = 1.77
Sequence = UUACAG; value = 0.867
Sequence = UGAUAG; value = 0.99
